Results of several laboratories.
Compare with care: the assays were run in different laboratories. “And” joins repeats or separate records; there may be more than shown. Numbers after ± are the reported error.
GABA-A receptor; alpha-1/beta-3/gamma-2: GABA-A receptor; alpha-1/beta-3/gamma-2 (Homo sapiens, UniProt P14867+P18507+P28472)
UniProt P18507, sequence (whole entry, looked up): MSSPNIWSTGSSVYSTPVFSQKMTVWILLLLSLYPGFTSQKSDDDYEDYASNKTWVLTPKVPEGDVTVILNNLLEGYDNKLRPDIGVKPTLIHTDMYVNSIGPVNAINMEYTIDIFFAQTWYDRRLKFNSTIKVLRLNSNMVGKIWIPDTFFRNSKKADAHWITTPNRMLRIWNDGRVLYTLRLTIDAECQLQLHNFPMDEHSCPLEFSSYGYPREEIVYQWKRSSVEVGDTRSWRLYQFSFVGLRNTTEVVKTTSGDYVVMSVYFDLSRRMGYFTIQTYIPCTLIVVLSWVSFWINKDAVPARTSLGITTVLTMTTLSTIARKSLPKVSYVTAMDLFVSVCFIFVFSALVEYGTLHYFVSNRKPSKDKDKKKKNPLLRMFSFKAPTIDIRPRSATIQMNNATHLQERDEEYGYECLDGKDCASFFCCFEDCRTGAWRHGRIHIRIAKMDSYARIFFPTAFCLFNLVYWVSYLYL
UniProt Q01959, sequence (whole entry, looked up): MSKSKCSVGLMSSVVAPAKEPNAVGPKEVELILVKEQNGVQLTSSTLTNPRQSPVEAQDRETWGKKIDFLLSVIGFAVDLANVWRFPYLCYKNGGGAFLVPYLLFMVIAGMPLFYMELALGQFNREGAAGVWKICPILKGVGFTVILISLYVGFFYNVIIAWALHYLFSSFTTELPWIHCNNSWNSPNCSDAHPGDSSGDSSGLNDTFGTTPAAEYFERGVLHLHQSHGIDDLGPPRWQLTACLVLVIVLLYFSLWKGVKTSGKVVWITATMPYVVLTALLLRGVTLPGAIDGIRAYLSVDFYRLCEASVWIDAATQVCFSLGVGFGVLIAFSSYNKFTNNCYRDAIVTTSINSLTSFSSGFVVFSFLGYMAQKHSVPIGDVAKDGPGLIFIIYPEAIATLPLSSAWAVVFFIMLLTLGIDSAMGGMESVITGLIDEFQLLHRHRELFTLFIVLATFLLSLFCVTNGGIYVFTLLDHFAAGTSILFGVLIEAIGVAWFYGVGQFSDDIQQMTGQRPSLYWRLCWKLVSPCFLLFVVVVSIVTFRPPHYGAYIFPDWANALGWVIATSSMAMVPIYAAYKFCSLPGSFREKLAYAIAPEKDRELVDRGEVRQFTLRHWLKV
UniProt P28472, sequence (whole entry, looked up): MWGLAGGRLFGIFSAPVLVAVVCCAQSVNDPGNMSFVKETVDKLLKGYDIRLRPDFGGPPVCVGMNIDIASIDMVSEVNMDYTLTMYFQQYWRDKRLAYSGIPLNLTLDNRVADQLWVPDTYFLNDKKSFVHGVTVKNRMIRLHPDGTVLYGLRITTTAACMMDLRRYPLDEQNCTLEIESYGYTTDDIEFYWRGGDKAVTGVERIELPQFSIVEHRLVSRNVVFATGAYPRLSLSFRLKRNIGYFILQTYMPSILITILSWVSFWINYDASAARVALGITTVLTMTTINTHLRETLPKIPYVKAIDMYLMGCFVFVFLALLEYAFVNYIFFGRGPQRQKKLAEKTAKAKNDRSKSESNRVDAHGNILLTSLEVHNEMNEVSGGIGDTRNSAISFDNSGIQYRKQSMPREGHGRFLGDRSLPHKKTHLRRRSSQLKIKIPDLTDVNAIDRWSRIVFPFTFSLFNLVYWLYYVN
UniProt P14867, sequence (whole entry, looked up): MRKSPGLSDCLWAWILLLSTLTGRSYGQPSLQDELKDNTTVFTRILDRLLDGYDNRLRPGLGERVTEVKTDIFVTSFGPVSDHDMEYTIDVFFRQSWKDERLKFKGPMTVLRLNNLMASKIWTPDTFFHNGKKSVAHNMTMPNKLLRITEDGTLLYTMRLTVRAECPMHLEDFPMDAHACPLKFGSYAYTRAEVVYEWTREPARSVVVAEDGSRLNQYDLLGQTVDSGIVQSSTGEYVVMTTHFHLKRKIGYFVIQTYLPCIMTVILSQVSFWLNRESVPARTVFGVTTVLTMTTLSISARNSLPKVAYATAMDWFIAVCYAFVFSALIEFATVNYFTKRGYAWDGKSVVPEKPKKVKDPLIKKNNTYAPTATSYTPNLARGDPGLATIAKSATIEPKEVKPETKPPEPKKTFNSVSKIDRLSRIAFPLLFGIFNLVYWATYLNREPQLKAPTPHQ
UniProt P28223, sequence (whole entry, looked up): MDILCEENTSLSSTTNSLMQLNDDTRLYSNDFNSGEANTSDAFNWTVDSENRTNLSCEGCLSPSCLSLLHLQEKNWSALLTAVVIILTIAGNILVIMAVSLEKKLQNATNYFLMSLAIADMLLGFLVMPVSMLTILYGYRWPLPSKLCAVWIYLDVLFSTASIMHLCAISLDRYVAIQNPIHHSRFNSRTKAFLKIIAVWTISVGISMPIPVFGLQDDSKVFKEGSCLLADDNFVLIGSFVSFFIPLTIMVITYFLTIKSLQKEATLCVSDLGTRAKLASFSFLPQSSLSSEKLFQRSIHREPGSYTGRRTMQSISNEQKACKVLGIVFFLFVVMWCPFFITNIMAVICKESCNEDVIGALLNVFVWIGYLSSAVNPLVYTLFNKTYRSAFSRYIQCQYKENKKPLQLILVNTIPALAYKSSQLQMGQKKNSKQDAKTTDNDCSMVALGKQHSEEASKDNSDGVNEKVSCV
UniProt Q92993, sequence (whole entry, looked up): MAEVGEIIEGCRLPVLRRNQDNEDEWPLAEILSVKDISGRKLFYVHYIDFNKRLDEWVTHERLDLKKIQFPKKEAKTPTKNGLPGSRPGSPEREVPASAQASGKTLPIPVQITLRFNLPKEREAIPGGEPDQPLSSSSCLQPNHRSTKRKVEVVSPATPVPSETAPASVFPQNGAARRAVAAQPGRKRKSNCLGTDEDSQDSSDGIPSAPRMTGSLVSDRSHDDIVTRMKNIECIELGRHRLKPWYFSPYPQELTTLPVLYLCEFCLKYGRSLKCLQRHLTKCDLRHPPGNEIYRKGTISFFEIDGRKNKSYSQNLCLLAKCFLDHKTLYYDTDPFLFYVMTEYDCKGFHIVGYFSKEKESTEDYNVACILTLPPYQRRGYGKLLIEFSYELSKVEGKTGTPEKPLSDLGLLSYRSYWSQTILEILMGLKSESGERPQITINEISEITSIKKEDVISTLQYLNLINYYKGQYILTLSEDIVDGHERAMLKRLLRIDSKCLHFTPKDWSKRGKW
UniProt P47869, sequence (whole entry, looked up): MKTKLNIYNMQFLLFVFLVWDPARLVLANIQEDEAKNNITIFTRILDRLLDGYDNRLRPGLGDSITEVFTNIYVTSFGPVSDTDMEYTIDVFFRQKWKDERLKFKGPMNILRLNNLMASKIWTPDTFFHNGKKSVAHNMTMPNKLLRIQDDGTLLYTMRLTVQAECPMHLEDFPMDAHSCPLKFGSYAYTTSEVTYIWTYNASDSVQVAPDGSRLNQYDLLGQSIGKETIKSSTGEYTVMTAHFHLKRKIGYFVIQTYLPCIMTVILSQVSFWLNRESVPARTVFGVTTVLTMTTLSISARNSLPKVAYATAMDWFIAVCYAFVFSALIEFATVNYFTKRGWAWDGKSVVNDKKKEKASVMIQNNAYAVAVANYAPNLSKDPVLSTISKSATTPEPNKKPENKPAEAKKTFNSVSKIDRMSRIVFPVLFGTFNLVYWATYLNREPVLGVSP
UniProt P23977, sequence (whole entry, looked up): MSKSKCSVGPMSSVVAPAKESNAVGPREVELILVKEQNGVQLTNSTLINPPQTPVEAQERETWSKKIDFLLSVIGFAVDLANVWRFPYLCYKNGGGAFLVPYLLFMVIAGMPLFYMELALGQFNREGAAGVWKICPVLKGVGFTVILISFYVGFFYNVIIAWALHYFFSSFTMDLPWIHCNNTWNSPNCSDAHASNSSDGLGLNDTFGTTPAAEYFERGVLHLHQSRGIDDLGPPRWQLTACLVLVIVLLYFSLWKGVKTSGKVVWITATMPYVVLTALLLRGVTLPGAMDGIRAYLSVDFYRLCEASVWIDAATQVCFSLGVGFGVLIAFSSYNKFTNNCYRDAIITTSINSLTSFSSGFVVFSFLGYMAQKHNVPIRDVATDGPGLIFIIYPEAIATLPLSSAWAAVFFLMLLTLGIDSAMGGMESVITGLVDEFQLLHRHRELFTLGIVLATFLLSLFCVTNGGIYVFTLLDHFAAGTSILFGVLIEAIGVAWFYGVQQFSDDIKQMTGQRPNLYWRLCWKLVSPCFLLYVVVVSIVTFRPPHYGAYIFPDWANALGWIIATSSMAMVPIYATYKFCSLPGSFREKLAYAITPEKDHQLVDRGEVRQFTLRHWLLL
UniProt P49760, sequence (whole entry, looked up): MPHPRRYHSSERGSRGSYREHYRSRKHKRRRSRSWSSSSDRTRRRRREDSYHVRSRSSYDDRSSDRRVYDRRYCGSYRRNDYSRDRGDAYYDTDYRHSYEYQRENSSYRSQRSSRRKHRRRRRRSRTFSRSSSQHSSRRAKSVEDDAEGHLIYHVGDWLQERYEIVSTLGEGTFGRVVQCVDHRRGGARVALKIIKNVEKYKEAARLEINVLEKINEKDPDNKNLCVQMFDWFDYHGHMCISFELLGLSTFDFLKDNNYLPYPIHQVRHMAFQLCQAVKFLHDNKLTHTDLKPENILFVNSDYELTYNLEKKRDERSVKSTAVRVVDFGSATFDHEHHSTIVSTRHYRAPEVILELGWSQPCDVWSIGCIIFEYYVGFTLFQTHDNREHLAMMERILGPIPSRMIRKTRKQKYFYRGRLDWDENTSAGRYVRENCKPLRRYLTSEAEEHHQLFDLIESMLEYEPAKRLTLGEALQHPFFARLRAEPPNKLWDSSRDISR
UniProt P41143, sequence (whole entry, looked up): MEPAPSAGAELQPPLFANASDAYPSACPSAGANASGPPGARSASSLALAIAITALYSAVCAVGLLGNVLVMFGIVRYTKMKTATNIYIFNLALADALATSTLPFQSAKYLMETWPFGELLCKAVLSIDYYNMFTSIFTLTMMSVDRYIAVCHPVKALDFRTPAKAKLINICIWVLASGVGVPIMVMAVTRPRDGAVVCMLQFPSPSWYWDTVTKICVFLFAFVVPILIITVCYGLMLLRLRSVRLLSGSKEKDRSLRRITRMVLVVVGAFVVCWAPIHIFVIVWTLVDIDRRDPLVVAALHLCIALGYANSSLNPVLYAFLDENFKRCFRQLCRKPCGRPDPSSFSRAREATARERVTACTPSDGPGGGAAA

COc1cc(CCNC(C)c2ccccc2O)c(OC)cc1C#N.Cl (centres unmarked)  selectivity ratio (5-hydroxytryptamine receptor 2A (HTR2A, Homo sapiens, UniProt P28223); binding, radioligand displacement; added: [3H]-ketanserin, [3H]-mesulergine (5-HT2C); reference: 5-HT2A over 5-HT2C): 149 fold
Oc1ccc2c3c1O[C@H]1[C@@H](O)CC[C@@]4(O)[C@@H](C2)N(CC2CCC2)CC[C@]314  log2 fold change (G-protein coupled receptor 143 (GPR143, Homo sapiens, UniProt P51810); β-arrestin recruitment, TANGO luminescence; concentration not given; reference: basal luminescence): 0.33
CNCCc1c[nH]c2ccccc12  Km (NMT from Rhinella marina; 10 min, 30 °C): 37 ± 9.5 µM
CCCN(CCC)CCc1c[nH]c2ccc(C(N)=O)cc12.O=C(O)/C=C\C(=O)O  inhibition (Genome polyprotein, NS3 helicase domain (Hepatitis C virus genotype 1b, UniProt Q9WMX2); DNA binding, inhibitor; hepatitis C virus; 100 µM, added: Cy5-dT15 DNA): 0%
CC(C)=CCN1CC[C@]2(C)c3cc(O)ccc3C[C@H]1[C@H]2C  inhibition (sigma-1 receptor (guinea pig); radioligand binding; concentration not given): 98.8%
CN1C(=O)NC(=O)[C@]2(CCc3ccccc32)C1=O  Emax (GABA-A receptor; alpha-1/beta-3/gamma-2; 300 µM): 16%
CCC(C(=O)c1ccc2c(c1)OCO2)N(C)C (centres unmarked)  EC50 (Sodium-dependent dopamine transporter (Slc6a3, Rattus norvegicus, UniProt P23977); substrate release, releaser; rat brain synaptosomes; added: [3H]MPP+ 9 nM): inactive
COc1ccc2c(c1)C1(CC2)C(=O)NC(=O)N(C)C1=O (centres unmarked)  Emax (GABA-A receptor; alpha-1/beta-3/gamma-2; 300 µM): 36%
CCOc1ccccc1C(=O)Nc1ccc(Cl)c(C(F)(F)F)c1  SPR binding response (Histone acetyltransferase KAT5 (KAT5, Homo sapiens, UniProt Q92993); SPR; 1.85 µM; higher = more binding): 0.15 RU
C[C@H]1CN(c2n[nH]c3nc(N[C@H]4CC[C@H](NS(=O)(=O)CCC(F)(F)F)CC4)ncc23)CCO1  relative abundance (Dual specificity protein kinase CLK2 (CLK2, Homo sapiens, UniProt P49760); inhibitor, Kinobeads competition profiling; 0.16 µM; reference: vehicle): 1.08
CS(=O)(=O)c1ccc(C(=O)N[C@H]2CC[C@@]3(O)[C@H]4Cc5ccc(O)c6c5[C@@]3(CCN4CC3CC3)[C@H]2O6)s1.Cl  selectivity ratio (Delta-type opioid receptor (OPRD1, Homo sapiens, UniProt P41143); radioligand binding; CHO membranes; reference: Ki µ over Ki δ): 22.7
Brc1ccc2c(c1)C(c1ccccn1)=NCc1c(-c3cnco3)ncn1-2  selectivity ratio (GABRG2/GABRA2, with β3 subunit (Homo sapiens, UniProt P18507+P47869); [3H]flunitrazepam binding; reference: α2β3γ2 over α1β3γ2 GABA-A): 1.93
Nc1ncnc2c1ncn2[C@@H]1O[C@H](COP(=O)(O)OP(=O)(O)OP(=O)(O)O)[C@@H](O)[C@H]1O  Km (Hepatocyte growth factor receptor (MET, Homo sapiens, UniProt P08581, F1200I); substrate): 2 µM
c1ccc2cc([C@]34CNC[C@H]3C4)ccc2c1  dopamine uptake (Sodium-dependent dopamine transporter (SLC6A3, Homo sapiens, UniProt Q01959); inhibitor, [3H]dopamine uptake; 1 nM; reference: no inhibitor): 132% and 107% and 101%
CCN(CC)C(=O)[C@@H]1C=C2c3cccc4[nH]cc(c34)C[C@H]2N(C)C1  activity class (Acetylcholinesterase (ACHE, Homo sapiens, UniProt P22303); biochemical; concentration not given): inactive
CN(C[C@@H]1COCCO1)S(=O)(=O)Nc1ccc2ccc3ncc(-c4cnn(C)c4)cc3c(=O)c2c1  binding affinity (Hepatocyte growth factor receptor (MET, Homo sapiens, UniProt P08581, C1091S/C1146S/K1232C/L1195V); concentration not given; reference: wild type): 47 fold
CN[C@@]1(c2ccccc2Cl)CCCCC1=O  inhibition (glycine transporter; radioligand binding, radioligand displacement; 30 µM): 34%

Some of these lines once more:
CCOc1ccccc1C(=O)Nc1ccc(Cl)c(C(F)(F)F)c1  SPR binding response (Histone acetyltransferase KAT5 (KAT5, Homo sapiens, UniProt Q92993); SPR; 1.85 µM; higher = more binding): 0.15 RU
C[C@H]1CN(c2n[nH]c3nc(N[C@H]4CC[C@H](NS(=O)(=O)CCC(F)(F)F)CC4)ncc23)CCO1  relative abundance (Dual specificity protein kinase CLK2 (CLK2, Homo sapiens, UniProt P49760); inhibitor, Kinobeads competition profiling; 0.16 µM; reference: vehicle): 1.08
